Measured values from different studies.
Parts stem from different laboratories: compare values within a part only. Several values in a cell are separate wells, animals, samples, runs or records.
UniProt Q9BWU1, sequence (whole entry, looked up): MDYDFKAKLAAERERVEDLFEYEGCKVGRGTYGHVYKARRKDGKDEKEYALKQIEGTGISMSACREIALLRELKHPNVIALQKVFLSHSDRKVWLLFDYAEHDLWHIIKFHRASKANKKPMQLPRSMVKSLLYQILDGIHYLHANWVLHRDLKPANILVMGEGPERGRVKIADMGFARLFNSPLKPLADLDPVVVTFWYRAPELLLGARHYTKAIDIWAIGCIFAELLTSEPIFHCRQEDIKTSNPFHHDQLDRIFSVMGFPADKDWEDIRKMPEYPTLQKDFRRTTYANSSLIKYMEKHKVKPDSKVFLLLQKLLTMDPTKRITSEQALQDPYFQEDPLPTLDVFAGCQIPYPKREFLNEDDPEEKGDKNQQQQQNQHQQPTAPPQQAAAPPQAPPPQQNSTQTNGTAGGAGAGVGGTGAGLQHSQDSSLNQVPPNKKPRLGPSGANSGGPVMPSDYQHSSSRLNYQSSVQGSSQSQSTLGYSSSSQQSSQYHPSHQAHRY
UniProt Q9H2K8, sequence (whole entry, looked up): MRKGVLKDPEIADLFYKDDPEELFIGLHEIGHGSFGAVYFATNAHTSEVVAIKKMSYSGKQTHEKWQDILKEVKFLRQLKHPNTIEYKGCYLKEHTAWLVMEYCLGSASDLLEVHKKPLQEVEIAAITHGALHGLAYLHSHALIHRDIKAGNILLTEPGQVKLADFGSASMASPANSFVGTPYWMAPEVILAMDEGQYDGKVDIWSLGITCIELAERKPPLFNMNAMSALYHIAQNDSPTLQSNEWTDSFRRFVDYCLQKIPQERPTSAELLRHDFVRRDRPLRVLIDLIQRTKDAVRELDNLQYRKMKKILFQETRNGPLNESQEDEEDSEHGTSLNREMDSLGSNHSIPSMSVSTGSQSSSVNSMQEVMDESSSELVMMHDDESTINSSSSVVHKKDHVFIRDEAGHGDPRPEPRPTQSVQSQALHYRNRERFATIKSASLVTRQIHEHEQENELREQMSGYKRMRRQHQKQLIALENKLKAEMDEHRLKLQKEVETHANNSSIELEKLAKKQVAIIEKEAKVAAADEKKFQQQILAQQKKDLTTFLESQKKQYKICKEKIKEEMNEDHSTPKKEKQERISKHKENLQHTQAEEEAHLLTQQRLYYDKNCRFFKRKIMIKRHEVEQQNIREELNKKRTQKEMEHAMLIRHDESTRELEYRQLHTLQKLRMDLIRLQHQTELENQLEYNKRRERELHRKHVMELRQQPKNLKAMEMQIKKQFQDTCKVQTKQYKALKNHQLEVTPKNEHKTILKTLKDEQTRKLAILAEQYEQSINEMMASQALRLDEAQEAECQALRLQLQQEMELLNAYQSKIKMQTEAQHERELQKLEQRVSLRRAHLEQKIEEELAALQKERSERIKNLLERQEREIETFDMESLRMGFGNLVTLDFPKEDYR
UniProt P06239, sequence (whole entry, looked up): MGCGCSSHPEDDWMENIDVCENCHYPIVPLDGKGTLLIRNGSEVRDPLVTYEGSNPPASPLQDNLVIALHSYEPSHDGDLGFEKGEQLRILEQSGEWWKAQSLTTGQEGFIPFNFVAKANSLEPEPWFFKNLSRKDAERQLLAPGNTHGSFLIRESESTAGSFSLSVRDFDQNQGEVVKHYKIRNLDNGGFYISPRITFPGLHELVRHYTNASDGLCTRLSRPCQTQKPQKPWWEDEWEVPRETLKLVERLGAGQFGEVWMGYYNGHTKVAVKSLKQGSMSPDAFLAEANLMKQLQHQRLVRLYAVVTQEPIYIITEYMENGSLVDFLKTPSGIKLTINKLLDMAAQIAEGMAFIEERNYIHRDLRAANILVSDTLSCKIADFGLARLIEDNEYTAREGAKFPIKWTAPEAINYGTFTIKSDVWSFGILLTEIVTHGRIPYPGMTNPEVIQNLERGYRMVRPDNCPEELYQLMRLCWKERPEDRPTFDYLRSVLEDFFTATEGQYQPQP
UniProt P42685, sequence (whole entry, looked up): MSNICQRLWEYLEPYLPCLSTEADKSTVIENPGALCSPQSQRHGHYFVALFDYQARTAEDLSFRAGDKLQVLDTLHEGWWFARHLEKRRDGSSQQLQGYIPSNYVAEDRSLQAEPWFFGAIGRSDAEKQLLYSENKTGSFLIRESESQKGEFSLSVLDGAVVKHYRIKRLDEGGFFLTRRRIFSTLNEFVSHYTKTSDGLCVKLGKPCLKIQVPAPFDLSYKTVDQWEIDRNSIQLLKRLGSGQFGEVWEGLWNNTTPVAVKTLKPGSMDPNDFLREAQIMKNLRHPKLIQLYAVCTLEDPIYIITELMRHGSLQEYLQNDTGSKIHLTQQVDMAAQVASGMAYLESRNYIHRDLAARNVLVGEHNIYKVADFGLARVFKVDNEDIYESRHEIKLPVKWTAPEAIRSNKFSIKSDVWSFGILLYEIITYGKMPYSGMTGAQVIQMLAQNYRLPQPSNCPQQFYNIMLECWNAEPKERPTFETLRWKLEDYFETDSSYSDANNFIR

Set 1 — observed: enzyme activity; mode: inhibitor; tested at: 77 µM; reference: untreated
Target: DNA polymerase theta, ATPase domain (POLQ, Homo sapiens, UniProt O75417)
UniProt O75417, sequence (whole entry, unmodified, looked up): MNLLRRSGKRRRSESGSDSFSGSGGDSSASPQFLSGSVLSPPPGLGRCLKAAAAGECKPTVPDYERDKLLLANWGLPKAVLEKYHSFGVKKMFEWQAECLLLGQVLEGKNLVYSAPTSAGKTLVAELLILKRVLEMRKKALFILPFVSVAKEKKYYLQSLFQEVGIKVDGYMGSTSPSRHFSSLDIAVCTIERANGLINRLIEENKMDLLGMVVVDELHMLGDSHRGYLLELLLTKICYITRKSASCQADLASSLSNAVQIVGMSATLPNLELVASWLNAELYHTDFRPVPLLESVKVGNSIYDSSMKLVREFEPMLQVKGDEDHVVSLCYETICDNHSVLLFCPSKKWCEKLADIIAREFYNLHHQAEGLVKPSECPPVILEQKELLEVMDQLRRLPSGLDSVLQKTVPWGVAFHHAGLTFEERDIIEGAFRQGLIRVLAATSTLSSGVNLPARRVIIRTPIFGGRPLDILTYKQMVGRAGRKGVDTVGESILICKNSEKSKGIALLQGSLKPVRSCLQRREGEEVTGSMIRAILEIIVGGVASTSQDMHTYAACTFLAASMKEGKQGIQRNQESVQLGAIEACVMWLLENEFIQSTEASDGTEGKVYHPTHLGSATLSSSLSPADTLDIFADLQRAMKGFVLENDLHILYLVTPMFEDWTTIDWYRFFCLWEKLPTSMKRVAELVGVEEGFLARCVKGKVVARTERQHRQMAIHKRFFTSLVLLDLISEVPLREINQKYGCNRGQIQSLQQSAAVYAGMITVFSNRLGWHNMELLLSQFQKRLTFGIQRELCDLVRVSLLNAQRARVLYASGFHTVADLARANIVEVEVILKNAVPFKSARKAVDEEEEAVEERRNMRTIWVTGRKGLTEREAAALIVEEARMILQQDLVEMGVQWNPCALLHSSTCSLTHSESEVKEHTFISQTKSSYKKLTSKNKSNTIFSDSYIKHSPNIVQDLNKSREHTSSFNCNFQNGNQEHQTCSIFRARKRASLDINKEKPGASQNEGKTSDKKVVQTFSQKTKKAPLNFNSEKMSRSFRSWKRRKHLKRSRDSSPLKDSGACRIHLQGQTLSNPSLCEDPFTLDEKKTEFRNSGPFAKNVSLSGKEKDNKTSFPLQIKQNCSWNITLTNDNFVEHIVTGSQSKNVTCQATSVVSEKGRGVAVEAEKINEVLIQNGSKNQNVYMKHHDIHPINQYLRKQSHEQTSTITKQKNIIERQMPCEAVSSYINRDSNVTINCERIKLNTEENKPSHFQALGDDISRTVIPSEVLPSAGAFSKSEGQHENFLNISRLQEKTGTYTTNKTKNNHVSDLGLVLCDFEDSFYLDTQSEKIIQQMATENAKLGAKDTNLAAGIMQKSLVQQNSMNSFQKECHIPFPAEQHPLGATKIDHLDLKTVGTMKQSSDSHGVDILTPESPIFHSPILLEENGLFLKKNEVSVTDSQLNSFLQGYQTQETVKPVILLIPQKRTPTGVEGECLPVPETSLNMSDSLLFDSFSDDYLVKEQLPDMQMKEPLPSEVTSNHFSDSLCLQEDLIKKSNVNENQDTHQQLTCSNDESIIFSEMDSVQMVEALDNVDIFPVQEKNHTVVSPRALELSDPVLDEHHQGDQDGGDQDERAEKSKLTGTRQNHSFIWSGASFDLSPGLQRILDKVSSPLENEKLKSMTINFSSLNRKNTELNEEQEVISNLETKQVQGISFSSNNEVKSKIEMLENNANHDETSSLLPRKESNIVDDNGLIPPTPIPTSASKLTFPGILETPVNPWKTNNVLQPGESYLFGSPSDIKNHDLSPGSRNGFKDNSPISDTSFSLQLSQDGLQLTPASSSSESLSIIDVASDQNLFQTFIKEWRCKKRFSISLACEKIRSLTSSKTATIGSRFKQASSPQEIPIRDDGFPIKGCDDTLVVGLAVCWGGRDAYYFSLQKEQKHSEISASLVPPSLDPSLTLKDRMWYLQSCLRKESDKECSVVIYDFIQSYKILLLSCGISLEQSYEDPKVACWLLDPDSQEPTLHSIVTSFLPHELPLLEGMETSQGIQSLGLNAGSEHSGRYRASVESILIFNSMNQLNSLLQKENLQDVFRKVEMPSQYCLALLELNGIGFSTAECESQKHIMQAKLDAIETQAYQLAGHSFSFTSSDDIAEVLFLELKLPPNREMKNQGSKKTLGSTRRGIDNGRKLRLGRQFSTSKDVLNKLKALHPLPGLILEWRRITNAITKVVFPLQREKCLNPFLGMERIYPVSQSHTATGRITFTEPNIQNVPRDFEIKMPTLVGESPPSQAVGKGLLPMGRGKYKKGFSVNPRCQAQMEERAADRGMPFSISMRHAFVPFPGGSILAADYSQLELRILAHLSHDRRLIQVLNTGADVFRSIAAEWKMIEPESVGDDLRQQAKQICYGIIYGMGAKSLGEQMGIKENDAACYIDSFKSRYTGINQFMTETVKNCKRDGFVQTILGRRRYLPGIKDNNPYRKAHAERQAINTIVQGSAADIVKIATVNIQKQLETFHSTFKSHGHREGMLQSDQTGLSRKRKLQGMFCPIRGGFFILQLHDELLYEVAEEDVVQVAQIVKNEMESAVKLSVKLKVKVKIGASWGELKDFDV
SMILES	remaining activity
COC(=O)C1=C(C#N)NC(C)=C(C(=O)OC(C)C)C1c1cccc([N+](=O)[O-])c1 (stereo not drawn)	102%
CCOC(=O)c1ccc(NC2CCCCC2)c(N)c1	94.3%
NS(=O)(=O)c1cc(Cl)c(Cl)c(S(N)(=O)=O)c1	101% and 99.8%
OCC(CO)N[C@H]1C[C@](O)(CO)[C@@H](O)[C@H](O)[C@H]1O	102%

Set 2 — technique: phase 2a trial
Compound: CC(C)n1cnc(-c2ccc(F)cc2)c1-c1ncc(C(=O)Nc2ccc(N3CCN(C)CC3)cc2)[nH]1
host	route	dose	notes	patients with TEAE [%]
patients with idiopathic pulmonary fibrosis		30 mg once daily	atopic dermatitis, grade 3	0
idiopathic pulmonary fibrosis patients	oral	dose not given	LDL increased, grade 2, all arms	0
patients with idiopathic pulmonary fibrosis		dose not given	free thyroxine decreased, grade 2, all arms	0
patients with idiopathic pulmonary fibrosis		60 mg once daily	skin papilloma, maximum intensity grade 3	0
patients with idiopathic pulmonary fibrosis		30 mg once daily	endocrine disorders SOC, grade 1	0

Set 3 — observed: binding; tested at: 1 µM
SMILES: COc1ccc2[nH]c3c4[nH]c5ccc(OC)cc5c4c4c(c3c2c1)C(=O)NC4=O
target	technique	remaining binding [%]
MST1R (Homo sapiens, UniProt Q04912)		93
MATK (Homo sapiens, UniProt P42679)		93
TAOK3 (Homo sapiens, UniProt Q9H2K8)	competition with immobilised ligand	96

Set 4 — tested at: 1 µM
SMILES: O=C(NCc1ncc(C(F)(F)F)cc1Cl)c1ccc2c(c1)C1(CCS(=O)(=O)CC1)[C@@H](C1CC1)N2S(=O)(=O)c1ccc(F)cc1
target	observed	technique	remaining binding
LCK (Homo sapiens, UniProt P06239)	cell-free assay	competition with immobilised ligand	100%
SBK1 (Homo sapiens, UniProt Q52WX2)	cell-free assay	competition with immobilised ligand	92%
MAPK8 (Homo sapiens, UniProt P45983)	cell-free assay	competition with immobilised ligand	55%
PDGFRB (Homo sapiens, UniProt P09619)	cell-free assay	competition with immobilised ligand	77%
MAP2K7 (Homo sapiens, UniProt O14733)	cell-free assay	competition with immobilised ligand	79%
WNK2 (Homo sapiens, UniProt Q9Y3S1)	cell-free assay	competition with immobilised ligand	0%
MAPK1 (Homo sapiens, UniProt P28482)	cell-free assay	competition with immobilised ligand	83%
CDK2 (Homo sapiens, UniProt P24941)	cell-free assay	competition with immobilised ligand	100%
PRKD3 (Homo sapiens, UniProt O94806)	cell-free assay	competition with immobilised ligand	100%
FRK (Homo sapiens, UniProt P42685)	cell-free assay	competition with immobilised ligand	99%
CDK19 (Homo sapiens, UniProt Q9BWU1)		competition binding	100%
NEK6 (Homo sapiens, UniProt Q9HC98)	cell-free assay	competition with immobilised ligand	95%
MAPKAPK5 (Homo sapiens, UniProt Q8IW41)	cell-free assay	competition with immobilised ligand	100%

Set 5 — organism: Cryptosporidium parvum; technique: time-kill; cells: HCT-8; strain: nanoluciferase-expressing; reference: DMSO control
SMILES: CN(C(=O)c1ccn2ncc(-c3ccc(C(N)=O)cc3)c2c1)c1ccc(C#N)cn1
tested at	time	luminescence remaining
0.7407 µM	8 h	112% and 122%
0.7407 µM	24 h	26.8% and 34.4%
0.00102 µM	72 h	104% and 64.4%
0.00305 µM	4 h	93.8% and 104%
0.00102 µM	8 h	89.4% and 113%

Excerpt of the above (set 4):
target	observed	technique	remaining binding
PRKD3 (Homo sapiens, UniProt O94806)	cell-free assay	competition with immobilised ligand	100%
MAPKAPK5 (Homo sapiens, UniProt Q8IW41)	cell-free assay	competition with immobilised ligand	100%
